Published values of several laboratories.
Compare with care: the assays were run in different laboratories. “And” joins repeats or separate records; there may be more than shown. ± marks the error that the study gave.

| SMILES | assay | system | conditions | how to read | quantity | value |
| --- | --- | --- | --- | --- | --- | --- |
| CCCCC1(CCCC)CN(c2ccccc2)c2cc(SC)c(OCC(=O)N[C@@H](C(=O)NCC(=O)O)c3ccccc3)cc2S(=O)(=O)C1 | refers to: 7α-hydroxy-4-cholesten-3-one | human, plasma | 15 mg once daily, day 5 |  | plasma C4 | 70 ng/mL |
| c1ccc(-c2n[nH]cc2-c2ccnc3ccccc23)nc1 | kinase binding, competitor, MIB/MS competition, refers to: CMK1 | Candida albicans cell lysate | 1 µM | reference: DMSO | log2 fold change | 1.32 |
| C=Cc1c(C)c2cc3nc(c(CC(=O)O)c4[nH]c(cc5nc(cc1[nH]2)C(C)=C5CC)c(C)c4C(=O)O)[C@@H](CCC(=O)O)[C@@H]3C | flow cytometry | 4T1 tumour-bearing mice | dose not given |  | IFN-γ+ CD8+ T cells | 0.72% and 0.64% and 0.86% and 0.65% |
| Cc1cc(Nc2cc3ncccc3c(N[C@@H]3C[C@H]4CC[C@@H](C3)N4CCC#N)n2)n[nH]1 |  | BALB/c mice, oxazolone colitis, colonic mucosa | oral, 30 mg/kg twice daily |  | T cell infiltration | decreased |
| CN(C)C(=O)Oc1cccc([N+](C)(C)C)c1 | neuromuscular block reversal | rat | dose not given, 13 (unit not given), added: cisatracurium | reference: T1 twitch | train-of-four ratio | 92.4 |
| C=CC(=O)Nc1cc(Nc2nccc(Nc3cc(Cl)c(F)cc3C(C)(C)O)n2)c(OC)cc1N1CC[C@@H](N(C)C)C1 |  | human, EGFR exon20ins NSCLC | concentration not given, other subtypes |  | disease control rate | 83.3% |
| O=C(OC(C(F)(F)F)C(F)(F)F)N1CCN(Cc2cccc(Oc3ccccc3)c2)CC1 | PET blocking study | rhesus monkey, brain CB | 0.01 mg/kg, compound pretreatment, added: [18F]T-401 tracer |  | k4 | 0.0776 min⁻¹ |
| C[C@@H](O)CCOC(=O)C[C@@H](C)O | refers to: C14-OH/C12-DC acylcarnitine | human, plasma | 60 min, log2-transformed values |  | metabolite level | -6.75 ± 0.6 µmol/L |
| CC(C)NCC(O)c1ccc(O)c(O)c1 (stereo not shown) |  | ventricular cardiomyocytes, C57BL/6 mouse | dose not given, 0.516 s |  | sarcomere length | 1.5 µm |
| CC[C@H](C)[C@@H]([C@@H](CC(=O)N1CCC[C@H]1[C@H](OC)[C@@H](C)C(=O)N[C@H](C)[C@@H](O)c1ccccc1)OC)N(C)C(=O)[C@@H](NC(=O)[C@H](C(C)C)N(C)C(=O)OCc1ccc(NC(=O)[C@H](CCCNC(N)=O)NC(=O)[C@@H](NC(=O)CCOCCOCCOCCOCCC(=O)N[C@@H]2CSSC[C@H](C(=O)O)NC(=O)CNC(=O)[C@@H](CCCNC(=N)N)NC(=O)CNC(=O)[C@@H](C(C)C)NC(=O)CNC(=O)[C@@H](C)NC(=O)[C@@H](CCCNC(=N)N)NC2=O)C(C)C)cc1)C(C)C |  | BALB/c mice, orthotopic 4T1.2 breast tumour | dose not given | reference: PBS | primary tumour growth | decreased |
| COc1nc(-c2cc(C)c(N[C@@H](C)c3cc(F)cc(F)c3)nn2)ccc1-n1cnc(C)c1 | refers to: Aβ42 | rat Sprague-Dawley male, CSF | oral, 5 mg/kg daily for 9 days, 4 h after dose | reference: vehicle | change in level | 41% |
| CO[C@H]1CC[C@H](N2C(=O)CNc3ncc(-c4ccc(C(C)(C)O)nc4)nc32)CC1 | flow cytometry | stimulated T cells, human, blood | 60 mg single dose, 24 h, mean | reference: baseline | p4EBP1 change from baseline | 11.7% |
| N=C(N)NCCC[C@H](NC(=O)[C@H](CCCNC(=N)N)NC(=O)[C@H](CCCCN)NC(=O)[C@H](CCC(N)=O)NC(=O)[C@H](CCCCN)NC(=O)[C@H](Cc1ccc(O)cc1)NC(=O)[C@@H](N)CCCCN)C(=O)N[C@@H](CO)C(=O)N[C@@H](Cc1ccc(O)cc1)C(=O)N[C@@H](CCCCN)C(=O)O |  | human, dentin hypersensitivity patients | topical to tooth, 10 µg/tooth repeated, day 36, phase 1/2a trial | direction not given | change in Schiff sensitivity score | -1.33 ± 0.52 |
| NCC(=O)Nc1cncc(-c2nn3c(=O)cc(N4CCNCC4)nc3s2)c1 | light transmission aggregometry | human, stable CAD on aspirin, platelets ex vivo | subcutaneous, 0.075 mg/kg, 24 h post-dose, median, added: ADP 20 µM |  | inhibition of platelet aggregation | 2.7% |
| CC1(C)CCC2(CC1)N[C@@H](C(=O)N[C@@H]1CC[C@@H](C(N)=O)OC1)[C@H](c1ccnc(Cl)c1F)[C@]21C(=O)Nc2cc(Cl)ccc21 |  | human, solid tumours | 120 mg/day, RECIST | reference: patients | non-evaluable patients | 33.3% |
| Cc1cc([C@H]2C[C@H]3[C@@H](CF)SC(N)=N[C@@]3(c3ccc(F)cc3F)CO2)on1 | refers to: Aβx-42 | Mus musculus wild-type, brain | subcutaneous, 100 mg/kg, 1 h |  | Aβ42 level | 0.5 ng/g |
| Cc1cc(Nc2ncc(Cl)c(Nc3ccccc3S(=O)(=O)C(C)C)n2)c(OC(C)C)cc1C1CCNCC1 |  | patients with advanced solid tumours | dose not given, added: gemcitabine and cisplatin |  | overall survival | 12 months |
| CC(C)(C)c1cc(C(C)(C)C(=O)O)c(O)cc1NC(=O)c1c[nH]c2ccccc2c1=O |  | isolated rat colon | 1 nM to 10 µM |  | contraction AUC | no effect |
| CC[C@@H](C)[C@@H](NC(=O)[C@@H](Cc1ccc(O)cc1)NC(=O)[C@H]1CCCN1C(=O)[C@@H](CCCNC(=N)N)NC(=O)[C@H](N)Cc1c[nH]cn1)C(=O)N[C@H](C)C(=O)N[C@H](Cc1c[nH]cn1)C(=O)N[C@H](CCCNC(=N)N)C(=O)N[C@@H](C(=O)N[C@H](Cc1ccc(O)cc1)C(=O)N[C@H](CO)C(=O)N[C@H](Cc1ccccc1)C(N)=O)C(C)C | ex vivo flow cytometry | B16 tumour-bearing mice, tumor | dose not given |  | IFN-γ+ CD8+ T cell frequency | 21.8% and 30.4% and 19.1% and 24.8% and 24.4% |
| C[C@@H](Nc1cc(F)cc(F)c1)c1cc(C(=O)N(C)C)cc2c(=O)cc(N3CCOCC3)oc12 | immunohistochemistry, refers to: phospho-PRAS40 | human, tumor biopsy | oral, 120 mg twice daily continuous, 264 h after first dose | reference: baseline, direction not given | pPRAS40 H-score change | -4.88% |
| Cc1n[nH]c2ccc(-c3cc(OC[C@@H](N)Cc4ccccc4)cnc3-c3ccoc3)cc12 | kinase binding, competitor, MIB/MS competition, refers to: PKH3 | Candida albicans cell lysate | 10 µM | reference: DMSO | log2 fold change | -0.466 |
| COc1nc(NCc2cn(-c3ccc(NC(=O)c4ccc(C(F)(F)F)cc4)cc3)nn2)nc(OC)n1 | MTT | normal colonocytes, rat | 72 h |  | maximum non-toxic concentration | 1.53 ± 0.2 nM |
| CCN1CCN(Cc2ccc(Nc3ncc(F)c(-c4cc(F)c5nc6n(c5c4)[C@H](C)CCC6)n3)nc2)CC1 |  | human advanced solid tumours | 400 mg, phase Ia monotherapy RECIST 1.1 |  | non-CR/non-PD | 0% |

| SMILES | assay | system | conditions | how to read | quantity | value |
| --- | --- | --- | --- | --- | --- | --- |
| CN[C@@H]1COc2c(S(=O)(=O)NC(=O)Nc3c4c(cc5c3CCC5)CCC4)cnn2C1 | refers to: IL-1β | human participants, whole blood ex vivo | 1800 mg single dose, 72 h, added: LPS/ATP | reference: baseline | inhibition | 45.9% |
| O=C(O)CNC(=O)Cc1ccccc1 |  | ventricular cardiomyocytes, C57BL/6 mouse | dose not given, 0 s |  | sarcomere length | 1.72 µm |
| Cc1cn(-c2cc(NC(=O)c3ccc(C)c(Nc4nccc(-c5cccnc5)n4)c3)cc(C(F)(F)F)c2)cn1 | refers to: phospho-tau 181 | human, cerebrospinal fluid | dose not given, between 12 and 6 months, unit not given | reference: placebo | median difference in change | 1.11 |
| OC(CCN1CCCCC1)(c1ccccc1)C1CC2C=CC1C2 (stereo not shown) | resting-state EEG | healthy elderly humans | oral, 2 mg, eyes open, LS mean |  | EEG theta power, O2 Pz | 5.2 µV² |
| CC1(C)CCC(c2ccc(Cl)cc2)=C(CN2CCN(c3ccc(C(=O)NS(=O)(=O)c4ccc(N[C@H](CCN5CCOCC5)CSc5ccccc5)c(S(=O)(=O)C(F)(F)F)c4)cc3)CC2)C1 | cell killing | canine lymph node CD21+ B cells, dog 30 | 24 h |  | EC50 | 480 nM |
| CC(C)c1nc(N(C)S(C)(=O)=O)nc(-c2ccc(F)cc2)c1/C=C/[C@@H](O)C[C@@H](O)CC(=O)O |  | human, HIV-infected, plasma | concentration not given, median after treatment |  | triglycerides | 1.9 mmol/L |
| Cc1cc(/C=C2\Oc3cc(OCC4CC4)ccc3C2=O)cc(C)c1OC(C)(C)C(=O)O | RT-PCR, refers to: ANGPTL3, Apo C-III | db/db mice, MCD diet-fed, liver | 30 mg/kg | reference: model group | mRNA level | decreased |
| COc1cc2cc(-c3ccc(CC(=O)Nc4cc(C(C)(C)C(F)(F)F)no4)cn3)cnc2cc1OC |  | human RET-altered advanced solid tumours | 75 mg, phase I other tumours, RECIST 1.1 |  | disease control rate | 10% |
| N#Cc1ccn2c(-c3ccncc3)c(-c3ccc(F)cc3)nc2c1 | kinase binding, competitor, MIB/MS competition, refers to: PKH3 | Candida albicans cell lysate | 100 nM | reference: DMSO | log2 fold change | -0.157 |
| O=C(COc1ccc(Cl)cc1)NC12CC(c3nnc([C@H]4C[C@@H](OC(F)(F)F)C4)o3)(C1)C2 | refers to: ATF4 | PBMC ex vivo stimulated, human ALS patients | 100 mg, D7 predose | reference: baseline | protein level change | -68.6% |
| CC#CC(=O)N[C@H]1CCCN(c2c(F)cc(C(N)=O)c3[nH]c(C)c(C)c23)C1 |  | healthy volunteers, single ascending dose, serum | 1 mg, day 10 |  | change from baseline in serum IgM | 60 mg/L |
| Cc1oncc1C(=O)Nc1ccc(C(F)(F)F)cc1 | refers to: dihydroorotate | female CD-1 mice, pooled urine | oral, 30 mg/kg daily, 0-8 h after dose 10 |  | DHO concentration | 4180 ± 382 µM |
| COc1ccccc1[C@H](Cn1c(=O)n(C(C)(C)C(=O)O)c(=O)c2c(C)c(-c3ncco3)sc21)OC1CCOCC1 |  | human | 50 mg, post-treatment |  | blood Triglycerides level | 143 ± 103 mg/dL |
| C[C@H]1C[C@H]2CSC(N)=N[C@@]2(c2nc(NC(=O)c3ccc(OC(F)F)cn3)cs2)CO1 | refers to: total Aβ | healthy adults, plasma | 200 mg single dose, 6 h post-dose | reference: placebo | percent change from baseline | -51.8% |
| C[C@H]1O[C@@H](O[C@H]2CC[C@@]3(C)[C@@H](CC[C@]4(C)[C@@H]3C=C[C@]35OC[C@@]6(CCC(C)(C)C[C@H]63)[C@@H](O)C[C@]54C)[C@]2(C)CO)[C@H](O)[C@@H](O[C@@H]2O[C@H](CO)[C@@H](O)[C@H](O)[C@H]2O)[C@H]1O | Western blot | ethanol-fed mice, liver | dose not given, -L dose | reference: control mice | SIRT1 to β-actin ratio | 0.514 fold change and 0.649 fold change and 0.608 fold change |
| CN(C)C(=O)c1cc2cnc(Nc3ccc(N4CCNCC4)cn3)nc2n1C1CCCC1 | RNA-seq GSEA, refers to: HALLMARK_APOPTOSIS | MB002 tumour | concentration not given, in vivo | reference: vehicle, direction not given | GSEA enrichment score | -0.262 |
| Cn1cc(Nc2nc(N)nc(-c3cccc(-n4ccc5cc(C6CC6)cc(F)c5c4=O)c3CO)n2)cn1 | CD63 upregulation, anti-IgE-induced | human, multiple ascending dose, whole blood basophils ex vivo | 150 mg twice daily, day 14, 2 h |  | inhibition | 85% |
| N#Cc1ccc2c(-c3ccncc3)c(-c3ccc(F)cc3)nn2c1 | kinase binding, competitor, MIB/MS competition, refers to: CMK2 | Candida albicans cell lysate | 10 µM | reference: DMSO | log2 fold change | -0.0967 |
| Cn1cc(Nc2nccc(-c3ccc4c(c3)CN(C3COC3)CC[C@H]4NC(=O)c3cn(C(C)(C)C)nn3)n2)cn1 | refers to: Oxidative Stress Response, NRF2-mediated | splenic B cells, mouse | in vivo, 30 mg/kg, IgD-activated B cells | reference: vehicle, positive = activation | pathway activation z-score | 0.471 |
| Cc1noc(C)c1-c1cc(C(O)(c2ccccn2)c2ccccn2)c2nc(C3CC3)[nH]c2c1 | refers to: CCR2 expression | human patients | dose not given, day 1, 24 h |  | maximum inhibition | 28.5% |
| COc1nnc2ccc(N3CCC(c4ccc(OCCN5CCN(C)C(=O)[C@H]5C)cc4)CC3)nn12 |  | human patients | 40 mg once daily, 2-fold above baseline |  | time above HEXIM1 threshold | 4.32 h |
| Cc1coc([C@H]2C[C@H]3[C@@H](CF)SC(N)=N[C@@]3(c3ccc(F)cc3F)CO2)n1 | refers to: Aβx-42 | Mus musculus wild-type, brain | subcutaneous, 80 mg/kg, 14 h |  | Aβ42 level | 0.73 ng/g |
| Cc1cc(F)cc2c(CCC(=O)N[C@@H]3C(=O)NC[C@H]3O)c(-c3ccc(F)cc3)[nH]c12 |  | APOL1 G2 mice, IFNγ-induced | 30 mg/kg twice daily, day 7 |  | urine albumin/creatinine ratio | 2740 µg/mg and 15800 µg/mg and 15000 µg/mg and 1390 µg/mg and 9790 µg/mg |

Excerpt of the above:
| SMILES | assay | system | conditions | how to read | quantity | value |
| --- | --- | --- | --- | --- | --- | --- |
| CC1(C)CCC2(CC1)N[C@@H](C(=O)N[C@@H]1CC[C@@H](C(N)=O)OC1)[C@H](c1ccnc(Cl)c1F)[C@]21C(=O)Nc2cc(Cl)ccc21 |  | human, solid tumours | 120 mg/day, RECIST | reference: patients | non-evaluable patients | 33.3% |
| Cc1cc([C@H]2C[C@H]3[C@@H](CF)SC(N)=N[C@@]3(c3ccc(F)cc3F)CO2)on1 | refers to: Aβx-42 | Mus musculus wild-type, brain | subcutaneous, 100 mg/kg, 1 h |  | Aβ42 level | 0.5 ng/g |
| Cc1cc(Nc2ncc(Cl)c(Nc3ccccc3S(=O)(=O)C(C)C)n2)c(OC(C)C)cc1C1CCNCC1 |  | patients with advanced solid tumours | dose not given, added: gemcitabine and cisplatin |  | overall survival | 12 months |
